Published values of several laboratories.
Numbered parts are unrelated; each lists some results of a single study.

Sample 1
Target: Ras GTPase-activating protein-binding protein 1, full length (G3BP1, Homo sapiens, UniProt Q13283)
Sequence of UniProt Q13283 (whole entry, looked up): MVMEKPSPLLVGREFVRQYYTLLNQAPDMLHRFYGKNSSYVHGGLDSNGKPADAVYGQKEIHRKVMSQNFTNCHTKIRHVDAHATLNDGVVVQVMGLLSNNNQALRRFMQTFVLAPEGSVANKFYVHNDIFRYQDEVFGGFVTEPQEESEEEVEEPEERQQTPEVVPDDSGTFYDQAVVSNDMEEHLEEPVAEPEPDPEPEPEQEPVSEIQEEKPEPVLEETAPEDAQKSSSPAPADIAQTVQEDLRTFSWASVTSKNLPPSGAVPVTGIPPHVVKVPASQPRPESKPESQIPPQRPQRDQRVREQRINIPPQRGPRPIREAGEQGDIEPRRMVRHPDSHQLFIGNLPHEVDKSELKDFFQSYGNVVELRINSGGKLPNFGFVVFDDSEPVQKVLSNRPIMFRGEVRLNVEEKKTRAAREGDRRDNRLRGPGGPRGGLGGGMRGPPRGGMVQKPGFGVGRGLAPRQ
Technique: RNA Bind-n-Seq
Molecule type: RNA
Matrix: in vitro
Tested at: 200 nM
Notes: whole 134-nt RNA, ends assumed
Together with: 150 mM LiCl
Reference: input library
Direction: higher = stronger binding
Library: 7-deaza-guanosine replaces G
Strand | log2 enrichment
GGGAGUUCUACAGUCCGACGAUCCAUCCUUUGGGCCCCUCAAGGCCUUCAACCUGGUCAAGGACAGUGCCACGGGGCUCUCCAAGGGCUACGCCUUCUGUGAGUACGUGGACAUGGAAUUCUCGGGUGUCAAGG | -0.105
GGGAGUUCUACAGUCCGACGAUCCCUGUGCUACACAUCGUAUGUACCGAAUCGGGGUUUUUUGGGGUUUUUUGGGUUUUUUGGAAAGUAUUAUGUUACGCCGUUCGGAUCUGCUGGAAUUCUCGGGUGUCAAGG | 1.37
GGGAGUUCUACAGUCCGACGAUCCCUGUGCUACACAUCGUAUGUACCGAAUCGGGGUUUUUUUGGGGAAAAAAAGGGGAGGGGAAAGUAUUAUGUUACGCCGUUCGGAUCUGCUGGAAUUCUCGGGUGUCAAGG | -0.354
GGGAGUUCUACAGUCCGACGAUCGCAGGAAGUAAAAACAAAUGGUAAUGCUUCGGAUAGUGGCAGGGGUGGGGGUUGCUAAGGAAAGGGUGGGAUGGGAGUGGGUAAAGAGUUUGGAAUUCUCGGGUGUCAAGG | -0.061
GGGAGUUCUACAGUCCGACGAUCUCAAGUCCUGUGCUACACAUCGUAUGUACCGAAUCGGAAAGGGAAAGGAAAGGGAAAGUAUUAUGUUACGCCGUUCGGAUCUGCACUUCCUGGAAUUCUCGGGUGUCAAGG | -0.102
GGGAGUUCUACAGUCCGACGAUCCCUGUGCUACACAUCGUAUGUACCGAAUCGGGGCCCCCCGGGCCCCCCGGGGCCCCCCGGGAAAGUAUUAUGUUACGCCGUUCGGAUCUGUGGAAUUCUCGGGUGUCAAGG | -1.13
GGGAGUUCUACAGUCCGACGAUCAAGUCCUGUGCUACACAUCGUAUGUACCGAAUCGGAAAAAGGUUUUUGGAAAAAGGAAAGUAUUAUGUUACGCCGUUCGGAUCUGCACUUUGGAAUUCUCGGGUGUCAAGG | -1.46
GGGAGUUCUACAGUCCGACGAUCCACAGACAACACGCACCCACACAGACACAGAGGGAAGGGGUUGGGAUGGGGACAAAGUGCACAGCAGGGCGGGGUAGGACCCCAGCCCCUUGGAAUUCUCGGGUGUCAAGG | -0.0152
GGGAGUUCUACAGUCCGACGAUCUCAAGUCCUGUGCUACACAUCGUAUGUACCGAAUCGGAAAGGAAAAAGGUUUGGAAAGUAUUAUGUUACGCCGUUCGGAUCUGCACUUCCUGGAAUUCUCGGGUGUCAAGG | -1.26
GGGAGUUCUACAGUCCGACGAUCUGGCCCUGGUGGCAUGCGGGGAGGAAGAGGUGGCCUCAUGGAUCGUGGUGGUCCCGGUGGAAUGUUCAGAGGUGGCCGUGGUGAAGACAGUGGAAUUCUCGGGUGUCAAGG | -0.414
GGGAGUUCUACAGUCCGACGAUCUCAAGUCCUGUGCUACACAUCGUAUGUACCGAAUCGGAAAAAGGAAAGGAAAGGAAAGUAUUAUGUUACGCCGUUCGGAUCUGCACUUCCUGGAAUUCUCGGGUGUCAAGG | -0.627

Sample 2
Target: RNA binding protein fox-1 homolog 2, RRM domain, GST-SBP tag (RBFOX2, Homo sapiens, UniProt O43251-10, residues 100-194)
Technique: RNA Bind-n-Seq
Molecule type: RNA
Matrix: in vitro
Tested at: 365 nM
Notes: natural RNA segment, single round, ends assumed
Reference: no-protein control
Direction: higher = stronger binding
Construct (chain): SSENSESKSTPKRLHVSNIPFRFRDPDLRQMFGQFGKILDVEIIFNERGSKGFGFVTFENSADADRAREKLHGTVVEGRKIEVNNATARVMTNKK
Strand | RBNS enrichment (R)
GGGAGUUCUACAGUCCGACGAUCGUCUCUGUAGCUAAUUUAAUUUGCUCUUCGUGUGGCAGAUCAUUCUGCCAAAAUACUUGAACACUGUGUUUUAUUGUGGUAAUUAUGUUUUGUGACUCAAACUUCUGUGCUGGAAUUCUCGGGUGCCAA | 0.806
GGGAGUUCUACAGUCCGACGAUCCGAGGCCCAUCUCCGCAUCCCGGGCUCCUGGCUCUUGAUUUUGUCUGCCACAGACAUCCCACAAAGCCGCUGCCAUUUUAUUAAAGUGUUUUGAUCCACUUUGCACUGGAUGGAAUUCUCGGGUGCCAA | 0.461
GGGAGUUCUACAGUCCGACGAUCGCGUGUGCGUGGAGCCACAGUACCUCCUACACUCCCUGAGGCUCCGACUUGGGGAAAUAAAUUUCCCACCUCGUCGGCCCCAGCUCUGUUUCUGCCACUCCUGUCCAAGCUGGAAUUCUCGGGUGCCAA | 0.756
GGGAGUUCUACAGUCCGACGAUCAUACAUUCAUAAGGAAAUGUGUGUUGUAACAAAUAUAUUGCAAAAACAUAGUUUGUAAAGGCAUUCUAUAAGCUAUUUAUGUAAAAUCAAUAAAAGUUGAUCAUAAUUAAUGGAAUUCUCGGGUGCCAA | 0.6
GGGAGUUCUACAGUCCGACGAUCUGGCAAAUAGGAUGUGUGCCCAAAGAAUUAAAGCGAUGAGUGGCUGGUGAAGCGCUCUCUGUCCUGGCUGGUUUUUUGUCACCGCAAUCCACUGCCAAAGGCAGAAUUUAUGGAAUUCUCGGGUGCCAA | 0.595
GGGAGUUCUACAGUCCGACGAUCGGAUUAAGCCUUGAGCUUGGCUGGUGCCCAUUGGACCUGGGACCAGGUGUUACCCAGAGAGGUGCCUCUGCUGUGCUUCCUGCCUCCAUCACUUUCCUAGGGCCUCCGUGUGGAAUUCUCGGGUGCCAA | 0.28
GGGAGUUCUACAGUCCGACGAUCAGCAUUUAUUUGGUGGCAGAAUGUUUGCCUAGGUACAGAAUUAAUAGCCCUUAGCAACGACUGCUGCUGGUGUGUAUUUUUGUAAAUGUUAUGCACUCUCUGAAAGGAAAUGGAAUUCUCGGGUGCCAA | 1.33
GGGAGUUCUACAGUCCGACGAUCUAUGUCCUGUCUGCCAGCGUUCCCUGUACUAUAGGCCUGUGUAUAGUGUAGGGCAGAGCGUUGACCCACUGGCUAGUGCUUGACUUGGGAAUCAGGACAGUACCUGUACAUGGAAUUCUCGGGUGCCAA | 0.703
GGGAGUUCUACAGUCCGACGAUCUCCCCUGCUUAACUGCAGCCUGGAUAGCUGAGCUGCUGCUGAGGGCACGCCGUGCGCGACGGCUGACCUGGCAGCGUAGAGUGGGAUGAUCUAAAACUAAAGCUGCCUGUUGGAAUUCUCGGGUGCCAA | 0.513
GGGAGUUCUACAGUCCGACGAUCGCGCGAGUGCGUGUGAGAAGAACCGACCCACCCCGCGCAAGGGGAAGCCUCCUGUCUCCCCUUUCCCCGCGUCCGAGAAGGCGGAAACCCACAGUGUUACCUGACUUAUGUGGAAUUCUCGGGUGCCAA | 0.214
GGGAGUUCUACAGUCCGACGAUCCUCCCUCUGUCGGCUUUUUGCCAUCUGUGAUAUGCCAUAGGUGUGACAAUCCGAGCAGUGGAGUCAUUCAGCGGGAGCACUGCGCGCUAUCCCCUCACAUUCUCUAUGUAUGGAAUUCUCGGGUGCCAA | 0.628
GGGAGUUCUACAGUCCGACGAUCCCUGUCUUCCUCUGCACCGUGCUCAGGGAAAUGGCCUUCAUUCCAGAGGCCAGCUGUCUGCCUGACUUUUCCUCCGUUCUUGGCCUUCUCCCCUUCCCAUCUUCUGAGCUUGGAAUUCUCGGGUGCCAA | 1.05

Sample 3
Target: Prothrombin, mature alpha-thrombin (F2, Homo sapiens, UniProt P00734)
Technique: aptamer microarray, sandwich
Molecule type: DNA with 2'F-ANA
Matrix: in vitro
Tested at: 200 nM
Notes: whole 15-mer aptamer, many near background
Together with: Cy3 exosite-II aptamer, 400 nM
Direction: higher = stronger binding
Strand: GGTTGGTGTGGTTGG
Modification | mean fluorescence intensity
2'F-ANA at 8 9 10 12 15 | 228 a.u.
2'F-ANA at 1 3 5 6 7 8 13 | 121 a.u.
2'F-ANA at 1 2 3 6 8 9 11 12 13 14 15 | 76.7 a.u.
2'F-ANA at 1 2 8 13 14 | 89 a.u.
2'F-ANA at 3 4 6 7 8 9 14 | 324 a.u.
2'F-ANA at 1 4 5 7 8 11 12 13 15 | 81.6 a.u.
2'F-ANA at 1 3 6 7 8 11 14 | 118 a.u.
2'F-ANA at 1 3 5 8 9 10 11 14 15 | 83.1 a.u.
2'F-ANA at 2 3 4 6 8 9 10 11 13 15 | 159 a.u.
2'F-ANA at 2 3 5 6 7 9 11 15 | 130 a.u.
2'F-ANA at 6 7 10 | 184 a.u.
2'F-ANA at 7 8 11 13 14 15 | 204 a.u.
2'F-ANA at 1 2 4 5 6 11 12 14 | 48.5 a.u.
2'F-ANA at 8 10 12 15 | 225 a.u.
2'F-ANA at 1 4 5 10 12 13 14 15 | 46.8 a.u.
2'F-ANA at 1 2 6 7 12 | 309 a.u.
2'F-ANA at 1 2 3 5 7 8 9 10 13 14 15 | 55.2 a.u.
2'F-ANA at 2 6 7 10 12 14 | 85.5 a.u.
2'F-ANA at 2 5 6 8 10 11 13 15 | 83.7 a.u.
2'F-ANA at 1 4 7 10 12 13 15 | 52.7 a.u.
2'F-ANA at 2 4 5 7 10 11 13 15 | 48.1 a.u.
2'F-ANA at 4 5 7 9 10 11 | 47.2 a.u.
2'F-ANA at 1 2 3 4 8 10 | 58.4 a.u.
2'F-ANA at 2 6 8 9 10 11 13 14 15 | 65.7 a.u.
2'F-ANA at 1 3 6 7 9 10 11 13 | 99.5 a.u.

Sample 4
Target: Protein C-ets-1 (ETS1, Homo sapiens, UniProt P14921, residues 1-441, K379A, full length assumed)
Technique: protein-binding microarray
Molecule type: double-stranded DNA, one strand shown
Matrix: in vitro
Tested at: not given
Notes: k-mer, scored over probes, only values ≥0.25
Direction: higher = stronger binding
Target sequence (chain): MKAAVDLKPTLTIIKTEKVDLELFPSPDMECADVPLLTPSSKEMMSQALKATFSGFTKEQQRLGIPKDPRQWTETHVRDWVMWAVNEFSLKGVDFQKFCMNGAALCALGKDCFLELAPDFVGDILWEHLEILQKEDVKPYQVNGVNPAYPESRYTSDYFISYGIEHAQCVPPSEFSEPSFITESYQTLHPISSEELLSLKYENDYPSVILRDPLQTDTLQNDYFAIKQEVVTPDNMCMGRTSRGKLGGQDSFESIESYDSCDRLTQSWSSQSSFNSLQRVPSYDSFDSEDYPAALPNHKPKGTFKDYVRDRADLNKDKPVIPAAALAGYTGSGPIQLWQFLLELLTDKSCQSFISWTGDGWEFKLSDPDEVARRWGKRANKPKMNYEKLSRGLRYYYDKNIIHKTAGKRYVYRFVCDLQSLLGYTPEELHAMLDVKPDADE
Strand | E-score
GCGGAAGC | 0.256
GCGATCGC | 0.258
CACCGACC | 0.284
CCCGGAAG | 0.366
CGGTCTGC | 0.269
TGATATCA | 0.287
CCGGCGAA | 0.307
CGGTATCA | 0.257
ACACAACA | 0.277
CACCGGCG | 0.391
ATTTACCC | 0.254
ACCGGAGT | 0.396
CCGCCGGA | 0.284
ACACCGGT | 0.435
AATGGGTA | 0.282
CCCGGTCC | 0.305
CGGCGGTC | 0.272
ACCGACGA | 0.332
ATACACAT | 0.26
CCGGATAC | 0.383
CCGTACTA | 0.252
ATTTAATG | 0.286
AACCGGCA | 0.292
ACAGGTAA | 0.265
ACCACATA | 0.275

Repeated from above (sample 3):
Modification | mean fluorescence intensity
2'F-ANA at 4 5 7 9 10 11 | 47.2 a.u.
2'F-ANA at 2 4 5 7 10 11 13 15 | 48.1 a.u.
2'F-ANA at 1 4 5 10 12 13 14 15 | 46.8 a.u.
2'F-ANA at 2 3 4 6 8 9 10 11 13 15 | 159 a.u.
2'F-ANA at 1 2 3 4 8 10 | 58.4 a.u.
2'F-ANA at 1 2 8 13 14 | 89 a.u.
2'F-ANA at 1 4 7 10 12 13 15 | 52.7 a.u.
2'F-ANA at 1 3 6 7 8 11 14 | 118 a.u.
2'F-ANA at 8 10 12 15 | 225 a.u.
